Measurements gathered from unrelated publications.
Lines come from different studies, so protocols differ. ± marks the error that the study gave.

Structure (SMILES)	test	test system	conditions	scale	quantity	result
COc1ccc([N+](=O)[O-])cc1NC(=O)CCC(=O)[O][Zn][O]C(=O)CCC(=O)Nc1cc([N+](=O)[O-])ccc1OC.c1ccncc1	DPPH scavenging, absorbance	–	250 µg/mL	–	inhibition	68.2%
O=C(O)CCCC(=O)O	DPPH radical scavenging	–	500 µg/mL	–	inhibition	72.2 ± 1.63%
CCc1c2c(nc3ccc(O)cc13)-c1cc3c(c(=O)n1C2)COC(=O)[C@@]3(CC)OC(=O)[C@H](N)C(C)C	–	mice, orthotopic CT26 colon cancer	i.v., dose not given	baseline: irinotecan	survival extension	≥ 2 weeks
COc1ccc(C2=Nn3c(N/N=C4/C(=O)N(C)c5ccccc54)nnc3SC2)cc1	angiogenesis	hen egg chorioallantoic membrane	40 µM	baseline: DMSO vehicle	number of blood vessels	decreased
Cc1cc(Nc2nc(C[C@@]3(C(=O)O)CCN(Cc4cccc(Cl)c4F)[C@H](C)C3)cc(C)c2F)[nH]n1	–	mice, NCI-H69 xenograft	oral, 5 mg/kg once daily	–	tumour growth inhibition	79%
Cc1ccc(/C=C/C(=O)O)cc1-c1cc2c(cc1C)C(C)(C)CCC2(C)C	RNA sequencing, item: Rbp1	rat, brain	dose not given, 24 h	baseline: vehicle	log2 fold change	-0.19
CC[C@H](C)[C@H](NC(=O)[C@H](CCCNC(=N)N)NC(=O)[C@H](CCC(N)=O)NC(=O)[C@H](CC(=O)O)NC(=O)[C@H](CC(C)C)NC(=O)[C@H](CC(C)C)NC(=O)[C@H](CC(N)=O)NC(=O)[C@H](Cc1ccccc1)NC(=O)[C@H](CC(=O)O)NC(=O)[C@@H](NC(=O)[C@@H](NC(=O)[C@H](CC(N)=O)NC(=O)CNC(=O)[C@H](CO)NC(C)=O)C(C)C)[C@@H](C)CC)C(=O)N[C@H](C(=O)N[C@@H](Cc1c[nH]c2ccccc12)C(=O)N[C@@H](CCC(N)=O)C(=O)N[C@@H](CC(N)=O)C(=O)N[C@@H](Cc1c[nH]c2ccccc12)C(=O)N[C@@H](Cc1ccc(O)cc1)C(=O)N[C@@H](C)C(N)=O)[C@@H](C)CC	item: HA-19 tetramer	antigen-experienced tetramer+ CD4 T cells, healthy adults, HLA-DRB1*0101	dose not given	–	α4β7+ CCR9+ cells	7.69%
COc1ccc(F)cc1S(=O)(=O)Nc1cnc2c(c1)C(=O)NCCO2	item: pyrophosphate	cynomolgus monkey	oral, 0.3 and 1 mg/kg, up to 8 h	baseline: vehicle	AUC of plasma PPi change	increased
CC(C)C[C@@H](NC(=O)[C@H]1CCCN1C(=O)[C@H]1CCCN1C(=O)[C@@H](CCCNC(=N)N)NC(=O)[C@@H](CCCNC(=N)N)NC(=O)[C@@H](CCCNC(=N)N)NC(=O)[C@@H](CCC(N)=O)NC(=O)[C@@H](CCCNC(=N)N)NC(=O)[C@@H](CCCNC(=N)N)NC(=O)[C@@H](CCCCN)NC(=O)[C@@H](CCCCN)NC(=O)[C@@H](CCCNC(=N)N)NC(=O)CNC(=O)[C@H](N)Cc1ccc(O)cc1)C(=O)N[C@H](CCCNC(=N)N)C(=O)N[C@H](CCCCN)C(=O)N[C@H](CCCCN)C(=O)N[C@H](CCCCN)C(=O)N[C@H](CCCCN)C(=O)N[C@H](CCCCN)C(=O)N[C@H](Cc1c[nH]cn1)C(N)=O	telemetry	mouse, awake	intraperitoneal, dose not given	–	mean arterial pressure increase	≤ 18 mmHg
CC[C@H](C)[C@H](NC(=O)[C@@H](NC(=O)[C@H](CC(=O)O)NC(C)=O)[C@@H](C)O)C(=O)N[C@@H](CCCNC(=N)N)C(=O)N[C@@H](CC(C)C)C(=O)N[C@@H](CC(C)C)C(=O)N[C@@H](Cc1ccccc1)C(=O)N[C@@H](CCC(N)=O)C(=O)N[C@@H](CC(C)C)C(=O)N[C@@H](CCSC)C(=O)N[C@@H](CCCNC(=N)N)C(=O)N1CCC[C@H]1C(=O)N1CCC[C@H]1C(=O)N[C@@H](CC(N)=O)C(=O)N[C@@H](CCSC)C(=O)N[C@H](C(=O)N1CCC[C@H]1C(=O)N[C@@H](C)C(=O)N[C@H](C(=O)N[C@@H](CC(N)=O)C(=O)N[C@@H](C)C(N)=O)C(C)C)[C@@H](C)O	item: HA-19 tetramer	antigen-experienced tetramer+ CD4 T cells, healthy adults, HLA-DRB1*0101	dose not given	–	α4β7+ CCR9− cells	28%
